Assay results collected from several papers.
Each numbered part is a random draw from the data of one study; scales do not carry over between parts. “And” joins repeats or separate records; there may be more than shown. ± marks the error that the study gave.

Sample 1
Cell line: HEK-293T
Observed: pseudovirus infection
Method: FDA-approved drug library screen
Organism: VSV pseudotyped with SARS-CoV-2 spike
Concentration: 10 µM
Time: 16 h
Baseline: vehicle-treated
Compound | GFP-positive cells [%]
CC#C[C@]1(O)CC[C@H]2[C@@H]3CCC4=CC(=O)CCC4=C3[C@@H](c3ccc(N(C)C)cc3)C[C@@]21C | 76.6
CC(=O)OCC(COC(C)=O)OC(C)=O | 95.5
CC(=O)OCC(=O)[C@@]1(O)CC[C@H]2[C@@H]3CCC4=CC(=O)CC[C@]4(C)[C@H]3[C@@H](O)C[C@@]21C | 92.8

Sample 2
Target: Replicase polyprotein 1ab, polymerase (rep, Severe acute respiratory syndrome coronavirus 2, UniProt P0DTD1)
Observed: enzyme activity
Mode: inhibitor
Concentration: 20 µM
SMILES | inhibition [%]
CC(C)c1c(CN(C)C(C)Cc2ccccc2)n(C)n(-c2ccccc2)c1=O (centres unmarked) | -1.62
Clc1ccc(C(c2ccccc2Cl)C(Cl)Cl)cc1 (centres unmarked) | 0.35
C=C1/C(=C\C=C2/CCC[C@]3(C)[C@@H]([C@H](C)CCCC(C)C)CC[C@@H]23)C[C@@H](O)C[C@@H]1O | -7.39
CN[C@@H]1Cc2cccc3[nH]c(=O)n(c23)C1 | -0.58
N#CC(c1ccnc(OCc2ccc(CN3CCOCC3)cc2)n1)c1nc2ccccc2s1 (centres unmarked) | -3.49
CNCC[C@@H](Oc1ccccc1C)c1ccccc1 | -9.16
C[C@H]1CC[C@H](n2c3cnccc3c3cnc(Nc4ccc5c(n4)CCN(C(=O)CO)C5)nc32)CC1 | 3.26
C/C(=C\c1csc(C)n1)[C@@H]1C[C@@H]2O[C@]2(C)CCC[C@H](C)[C@H](O)[C@@H](C)C(=O)C(C)(C)[C@@H](O)CC(=O)N1 | -4.44
O=[N+]([O-])c1cccc2cn[nH]c12 | -6.21
O=C(Nc1ccccc1)N1CCN(c2nc(-c3ccccc3)ns2)CC1 | -3.03
Clc1ccc(C2=CCC[C@@H]3CC[C@H]2N3)cn1 | -7.53
O=C(/C=C/N1C[C@H]2C[C@@H]1CN2c1ccccn1)c1ccccc1O | 0.75
CC(C)c1ccccc1S(=O)(=O)c1cc(N)c2ncccc2c1[N+](=O)[O-] | -15.7
Cc1ccc(-c2n[nH]c3c2C(c2cccc(O)c2)N(c2ccc(C(=O)O)cc2)C3=O)cc1 (centres unmarked) | 17.6
N[C@H](C(=O)O)c1ccc(O)cc1 | 6.54
C[C@H](N)Cc1cnc[nH]1 | 5.02
COC(=O)[C@@H]1CC2=CC(=O)CC[C@]2(C)[C@@]23O[C@@H]2C[C@@]2(C)[C@@H](CC[C@@]24CCC(=O)O4)[C@H]13 | 0.18
Oc1cccc(Nc2ncc(F)c(Nc3cccc(O)c3)n2)c1 | -1.2
C[C@H](Oc1ccc(S(C)(=O)=O)cc1C(=O)N1CCN(c2ncc(C(F)(F)F)cc2F)CC1)C(F)(F)F | 3.51
CNc1nc(-c2ccc3c(N)n[nH]c3c2)cc(N2C[C@@H](C(=O)NC3CCCCC3)CC[C@H]2C)n1 | -6.83
O=C1CC2(CCCC2)CC(=O)N1CCNCC1COc2ccccc2O1 (centres unmarked) | 1.66
Clc1ccccc1CNC[C@H]1CC[C@H](CNCc2ccccc2Cl)CC1 | -0.97

Further values, each from its own experiment
rep main protease: Replicase polyprotein 1ab, main protease (rep, Severe acute respiratory syndrome coronavirus 2, UniProt P0DTD1)
B1: yoeB 1-88 (Staphylococcus aureus, UniProt A0A3A3ATA4); chain MARLNITFSPQAFEDYKYFQQNNKKMVKKINELLKSIDRNGALEGIGKPEKLKSNLTGYYSRRINHEHRLVYTVDDNHIKIASCKYHY
Substance | tested on | test | system | conditions | how to read | quantity | value
CN1CCCC(CN2c3ccccc3Sc3ccccc32)C1 (centres unmarked) | SARS-CoV-2 | viral replication, GFP plate reader screen |  | cell-based |  | EC50 | > 20 µM
insulin human |  | item: ACHE mRNA | EcoHIV-infected mouse, brain | i.p., dose not given | baseline: PBS | fold change | 0.991
SLLIVNNATNVVIKV | human CD4 T cells | AIM | peptide |  |  | responding donors | 9%
B1 (yoeB 1-88) | yefM (Staphylococcus aureus, UniProt A0A0B4ND47) | SEC-MALS |  |  |  | YoeB per YefM | 1 YoeB per YefM
CCNC/C=C\CNCCCCNCCCCNC/C=C\CNCC | SARS-CoV-2 | viral replication, inhibitor | Vero E6, USA-WA1/2020 | 24 h |  | EC90 | ~0.304 µM
LMP1 D150A (Epstein-Barr virus) | itself | luciferase reporter | HEp2 |  | baseline: LMP-1 expressing cells, higher = less activity | NFκB reporter activity | 6 fold less
Cc1cccc(/C=N/Nc2cc(N3CCOCC3)nc(OCCc3ccccn3)n2)c1 | SARS-CoV-2 | viral replication | 293T-ACE2, USA-WA1/2020 | 24 h |  | EC50 | 0.012 µM
Cc1ccc(C(C)Nc2nc(N3CCNCC3)nc3ccccc23)cc1 (centres unmarked) | SARS-CoV-2 | cytopathic effect, cell-based CPE | USA_WA1/2020 | round 2, 5-point dilution |  | efficacy | 90.1%
EELKKLLEQWNLVIG | human CD4 T cells | AIM | peptide |  |  | responding donors | 13%
CN1CCCC(n2nc(Cc3ccc(Cl)cc3)c3ccccc3c2=O)CC1 (centres unmarked) | SARS-CoV-2 | viral replication, high-content imaging screen |  | cell-based |  | EC50 | > 100 µM
CC[PH](CC)(CC)[Au][S][C@@H]1O[C@H](COC(C)=O)[C@@H](OC(C)=O)[C@H](OC(C)=O)[C@H]1OC(C)=O | rep main protease | enzyme activity, inhibitor |  | 20 µM, hit confirmation |  | inhibition | 99.6%
RTCKDLIPVSECTDIRCRTSMKYRLNLCRKTCGSC (HmK mature tethered (Heteractis magnifica, UniProt O16846); C-terminal GPI anchor) | KCNA3 (Homo sapiens, UniProt P22001-1) | channel current block, two-electrode voltage clamp |  |  |  | koff | 0.016 s⁻¹
CC[C@H](C)[C@H](NC(=O)[C@H](CC(C)C)NC(=O)[C@H](Cc1c[nH]c2ccccc12)NC(=O)[C@H](CCC(N)=O)NC(=O)[C@@H](NC(=O)[C@H](Cc1ccccc1)NC(=O)[C@H](C)NC(=O)[C@H](CCCCNC(=O)COCCOCCNC(=O)COCCOCCNC(=O)CC[C@H](NC(=O)CCCCCCCCCCCCCCCCCCC(=O)O)C(=O)O)NC(=O)[C@H](CCC(N)=O)NC(=O)[C@H](C)NC(=O)[C@@H](NC(=O)[C@H](CCCCN)NC(=O)[C@H](CC(=O)O)NC(=O)[C@H](CC(C)C)NC(=O)C(C)(C)NC(=O)[C@@H](NC(=O)[C@H](CO)NC(=O)[C@H](Cc1ccc(O)cc1)NC(=O)[C@H](CC(=O)O)NC(=O)[C@H](CO)NC(=O)[C@@H](NC(=O)[C@H](Cc1ccccc1)NC(=O)[C@@H](NC(=O)CNC(=O)[C@H](CCC(=O)O)NC(=O)C(C)(C)NC(=O)[C@@H](N)Cc1ccc(O)cc1)[C@@H](C)O)[C@@H](C)O)[C@@H](C)CC)[C@@H](C)CC)C(C)C)C(=O)N[C@@H](C)C(=O)NCC(=O)NCC(=O)N1CCC[C@H]1C(=O)N[C@@H](CO)C(=O)N[C@@H](CO)C(=O)NCC(=O)N[C@@H](C)C(=O)N1CCC[C@H]1C(=O)N1CCC[C@H]1C(=O)N1CCC[C@H]1C(=O)N[C@@H](CO)C(N)=O |  |  | healthy subjects, serum | 0.5 mg, baseline, multiple ascending dose |  | serum ALT | 22 ± 7.6 U/L
hemin | rep main protease | enzyme activity, inhibitor |  | 1 h preincubation, 37 °C, together with: Tween-20 0.05% |  | IC50 | 25 µM
Rhodiosin | rep main protease | inactivator |  |  |  | kinact/KI | 408 M⁻¹ s⁻¹
BKRF4 fragment W84Y/P86A (Epstein-Barr virus) | H2A/H2B dimer (Homo sapiens) | ITC |  | 25 °C, NaCl 0.5 M | baseline: wild type, lower = weaker binding | relative binding | 8 fold
Kaliotoxin | human iPSC-derived microglia | cytokine release, ELISA |  | 2 µM, together with: LPS |  | IL-6 release | no effect
CCCC[C@H](NC(=O)[C@@H]1[C@@H]2[C@H](CN1C(=O)[C@@H](NC(=O)NC1(CS(=O)(=O)C(C)(C)C)CCCCC1)C(C)(C)C)C2(C)C)C(=O)C(=O)NC1CC1 | rep main protease | enzyme activity, inhibitor |  | 20 µM, hit confirmation |  | inhibition | 55.3%
NAPRITFGGP | PBMC from COVID-19 convalescents | T-cell response, ELISpot | peptide | concentration not given, HLA-B*07:02 |  | responding individuals | 21% and 21.5%

Some of these lines once more (sample 2):
SMILES | inhibition [%]
Oc1cccc(Nc2ncc(F)c(Nc3cccc(O)c3)n2)c1 | -1.2
N#CC(c1ccnc(OCc2ccc(CN3CCOCC3)cc2)n1)c1nc2ccccc2s1 (centres unmarked) | -3.49
CNCC[C@@H](Oc1ccccc1C)c1ccccc1 | -9.16
Cc1ccc(-c2n[nH]c3c2C(c2cccc(O)c2)N(c2ccc(C(=O)O)cc2)C3=O)cc1 (centres unmarked) | 17.6
C[C@H](Oc1ccc(S(C)(=O)=O)cc1C(=O)N1CCN(c2ncc(C(F)(F)F)cc2F)CC1)C(F)(F)F | 3.51
